Measurements gathered from unrelated publications.
Compare with care: the assays were run in different laboratories. Numbers after ± are the reported error.

SMILES | test | system | setting | how to read | quantity | value
Cn1ncc(S(=O)(=O)NC2(c3cc(F)cc(Br)c3)CC2)c1C(=O)O | colloidal aggregate formation, dynamic light scattering | 50 mM potassium phosphate buffer | 200 µM, pH 7.0, 1% DMSO | higher = more aggregation | DLS scattered light intensity | 435000 counts/s
[O]=[Co].[O]=[Co][O][Co]=[O] | – | Crl:CD(SD) rat female, blood | oral, 73.4 mg Co/kg/day, 90 days | – | haemoglobin | 9.51 mmol/L
OC[C@H]1O[C@@H](c2ccc(Cl)c(Cc3ccc(O[C@H]4CCOC4)cc3)c2)[C@H](O)[C@@H](O)[C@@H]1O | – | Japanese type 1 diabetes patients, blood | 25 mg, day 28 | baseline: baseline | change in Non-HDL cholesterol | 3.17 mg/dL
O=C(N[C@@H](CSCc1ccc([N+](=O)[O-])cc1)C(=O)NO)c1ccccc1 | – | ICR mice, male | oral, 200 mg/kg, 28 days, subacute toxicity | – | blood glucose level | increased
CCc1cc(C(=O)NC)c2nccc(N3CCc4c(cc(Cn5ccnc5)cc4-c4cn(C)nc4C(F)(F)F)C3=O)c2c1 | item: Eos | Sprague Dawley rat | oral, 50 mg/kg once daily, 7 days | baseline: vehicle | change in clinical chemistry or haematology parameter | -20.6%
CCO[C@H]1CCN(Cc2c(OC)cc(C)c3[nH]ccc23)[C@H](c2ccc(C(=O)O)cc2)C1 | – | PNH patients, active haemolysis | oral, 25 mg, 4 weeks, treatment | – | incidence of oropharyngeal pain | 14.3%
C[C@@H](Nc1cc(F)cc(F)c1)c1cc(C(=O)N(C)C)cc2c(=O)cc(N3CCOCC3)oc12 | item: Pneumonitis | advanced solid tumour patients | oral, dose not given, dose finding | – | related serious adverse events | 0%
COc1cc2c(cc1OC)CN(CCc1ccc(NC(=O)c3cc(OC)c(OC)cc3NC(=O)c3cnc4ccccc4c3)cc1)CC2 | – | human, plasma | intravenous, 5.9 mg/kg, 90 min | – | plasma concentration | 2710 nM
CC(C(=O)NCC(=O)NCC(CNC(=O)CNC(=O)C(C)N1CCN(CC(=O)[O-])CCN(CC(=O)[O-])CCN(CC(=O)[O-])CC1)(CNC(=O)CNC(=O)C(C)N1CCN(CC(=O)[O-])CCN(CC(=O)[O-])CCN(CC(=O)[O-])CC1)CNC(=O)CNC(=O)C(C)N1CCN(CC(=O)[O-])CCN(CC(=O)[O-])CCN(CC(=O)[O-])CC1)N1CCN(CC(=O)[O-])CCN(CC(=O)[O-])CCN(CC(=O)[O-])CC1.[Gd+3].[Gd+3].[Gd+3].[Gd+3] (stereo not shown) | HPLC-ICP-MS | cynomolgus monkey, urine | up to 72 h | baseline: total Gd | intact compound share | > 98%
CSc1ccc(CNS(=O)(=O)c2c(C)oc(C)c2C(=O)O)cc1C | colloidal aggregate formation, dynamic light scattering | 50 mM potassium phosphate buffer | 200 µM, pH 7.0, 1% DMSO | higher = more aggregation | DLS scattered light intensity | 530000 counts/s
O=C(Nc1nc2cccc(-c3ccc(CN4CCS(=O)(=O)CC4)cc3)n2n1)C1CC1 | item: body temperature increased | human rheumatoid arthritis patients | oral, 150 mg once daily, 4 weeks, regardless of relatedness | – | treatment-emergent adverse events | 0%
CNC(=O)c1ccc(-c2cnc3ncc(Cc4ccc5ncccc5c4)n3n2)cc1F | item: Pruritus, all grades | cancer patients | oral, dose not given, dose escalation, any causality | – | patients with adverse event | 13%
O=C(O)c1ccccc1S(=O)(=O)NCc1ccccc1C1CCC1 | colloidal aggregate formation, dynamic light scattering | 50 mM potassium phosphate buffer | 200 µM, pH 7.0, 1% DMSO | higher = more aggregation | DLS scattered light intensity | 317000 counts/s
C[C@@H](Oc1ccc(S(C)(=O)=O)cc1C(=O)N1C[C@@H]2C[C@]2(c2cc(C(F)(F)F)on2)C1)C(F)(F)F | – | young healthy humans, urine | oral, 75 mg once daily, 0 to 24 h, multiple dosing | – | fraction excreted in urine at steady state | 3.9%
Cn1cc(Nc2nccc(-c3ccc4c(c3)CN(C3COC3)CC[C@H]4NC(=O)c3cn(C(C)(C)C)nn3)n2)cn1 | – | human, whole blood | 300 mg twice daily, day 7 | baseline: pre-dose baseline | plasma cell count change | 280%
Oc1ccc(/C=C/c2cc(O)cc(O)c2)cc1 | – | rat, azoxymethane-injected, blood | in vivo, 10 mg/kg, at sacrifice | – | r-GT level | < 3 IU/L
Cc1cc(N2CCc3c(c(C)nn3CC34CCC(NC(=O)[C@@H]5COCCN5)(CC3)CC4)C2)c2cnn(C)c2n1 | – | 129/Sv mice, blood | oral, 1.5 mg/kg, 3 h, added: TLR7 agonist ssRNA | – | blood concentration | 70 ± 4 nM
C/C(O)=C(\C#N)C(=O)Nc1ccc(C(F)(F)F)cc1 | – | CD-1 mice female, whole blood | oral, 30 mg/kg leflunomide daily, 24 h, after dose 10 | – | blood concentration | 251000 ± 130000 nM
CC(C)NCC(O)c1ccc(NS(C)(=O)=O)cc1 (racemic) | – | male Hartley guinea pig, anaesthetized | intravenous, 3 mg/kg, baseline before infusion | – | QTc interval | 335 ± 0.5 ms
CC[C@H](C)[C@H](NC(=O)[C@H](Cc1ccccc1)NC(=O)[C@H](CCC(=O)O)NC(=O)[C@H](CCCCNC(=O)COCCOCCNC(=O)COCCOCCNC(=O)CC[C@H](NC(=O)CCCCCCCCCCCCCCCCC(=O)O)C(=O)O)NC(=O)[C@H](C)NC(=O)[C@H](C)NC(=O)[C@H](CCC(N)=O)NC(=O)CNC(=O)[C@H](CCC(=O)O)NC(=O)[C@H](CC(C)C)NC(=O)[C@H](Cc1ccc(O)cc1)NC(=O)[C@H](CO)NC(=O)[C@H](CO)NC(=O)[C@@H](NC(=O)[C@H](CC(=O)O)NC(=O)[C@H](CO)NC(=O)[C@@H](NC(=O)[C@H](Cc1ccccc1)NC(=O)[C@@H](NC(=O)CNC(=O)[C@H](CCC(=O)O)NC(=O)C(C)(C)NC(=O)[C@@H](N)Cc1cnc[nH]1)[C@@H](C)O)[C@@H](C)O)C(C)C)C(=O)N[C@@H](C)C(=O)N[C@@H](Cc1c[nH]c2ccccc12)C(=O)N[C@@H](CC(C)C)C(=O)N[C@H](C(=O)N[C@@H](CCCNC(=N)N)C(=O)NCC(=O)N[C@@H](CCCNC(=N)N)C(=O)NCC(=O)O)C(C)C | – | type 2 diabetes patients | dose not given, hypoglycaemic clamp, nadir PG 5.5 mmol/L | baseline: placebo | diastolic blood pressure difference | 1.2 mm Hg
c1ccc(-c2nc(N3CCC(c4ccccn4)C3)c3ccccc3n2)nc1 (stereo not shown) | – | female Balb/c mice, blood | intravenous, 2 mg/kg, 0.25 h, mean, added: 1-aminobenzotriazole co-dosed | – | blood concentration | 2280 ng/mL
COc1cc2nccc(Oc3ccc(NC(=O)c4cc5c(n(-c6ccccc6)c4=O)CCCC5=O)nc3)c2cc1OC | – | relapsed or refractory AML | oral, all dose levels | – | grade ≥3 Fatigue patients | 10%
CCc1nc(C(N)=O)c(Nc2ccc(N3CCC(N4CCN(C)CC4)CC3)c(OC)c2)nc1NC1CCOCC1 | – | spiked mouse plasma QC samples | room temperature | – | bench-top stability time | ≥ 6 h
O=C(O)CCC(=O)O.[2H]C([2H])([2H])Oc1cc(C)c2[nH]ccc2c1CN1CC[C@@H](C2CC2)C[C@H]1c1ccc(C(=O)O)cc1 | – | healthy Chinese subjects | 600 mg, single ascending dose | – | TEAE decreased neutrophil | 0%
CNCCOC12CC3(C)CC(C)(CC(Cn4ncc(-c5ccc(N6CCc7cccc(C(=O)Nc8nc9ccccc9s8)c7C6)nc5C(=O)O)c4C)(C3)C1)C2 | – | beagle dog, male, anaesthetised | intravenous bolus, 0.03 mg/kg, 5 min | baseline: baseline | PR interval change | -8 ms
C[C@H]1CN(C(=O)CC#N)[C@]12CCN(c1ncnc3[nH]ccc13)C2 | – | healthy human | oral, dose not given | – | subjects with Vomiting | 3.1%
O=S(=O)(NC1CCCC12OCCO2)c1cccc(Cl)c1O (stereo not shown) | colloidal aggregate formation, dynamic light scattering | 50 mM potassium phosphate buffer | 200 µM, pH 7.0, 1% DMSO | higher = more aggregation | DLS scattered light intensity | 2.63e+06 counts/s
CC(C)(Sc1ccncc1-c1ccc(C#N)c2ccccc12)C(=O)O | – | human, urine | oral, 2.5 mg, added: febuxostat 10 mg | – | fraction excreted in urine (0-24 h) | 1.26%

SMILES | test | system | setting | how to read | quantity | value
CCCC1CCC(c2ccc(-c3ccc(F)c(F)c3)cc2)CC1 (stereo not shown) | item: compound | human pregnant women, male fetuses, maternal serum | dose not given, paired maternal-cord samples, mean | – | concentration | 0.45 ng/mL
C[C@H]1[C@H]2N(C(=O)CN(C)N2C(=O)NCc2ccccc2)[C@@H](Cc2ccc(OP(=O)(O)O)cc2)C(=O)N1Cc1cccc2cccnc12 | – | patients, plasma | intravenous infusion, 280 mg/m2 over 4 h, mean | – | AUC(0-24 h) | 7260 ng·h/mL
CCC(C)n1ncn(-c2ccc(N3CCN(c4ccc(OCC5COC(Cn6cncn6)(c6ccc(Cl)cc6Cl)O5)cc4)CC3)cc2)c1=O (stereo not shown) | – | human, plasma | oral, dose not given, day 15 predose, geometric mean | – | trough plasma concentration | 134 ng/mL
CC(C)(C(=O)N1CCOc2c(C#N)cncc2C1)C(F)F | item: ALT increased | human | oral, 15 mg twice daily, 14 days, multiple ascending dose | – | subjects with adverse event | 12.5%
C[C@@H](Cn1ccc(-c2ccc(C#N)c(Cl)c2)n1)NC(=O)c1cc([C@@H](C)O)[nH]n1 | – | healthy male human, plasma | intravenous infusion, 100 µg 14C-labelled, 15 min infusion, microtracer, geometric mean | – | AUC(0-tlast) | 3370 h·pg eq/mL
Cl.[2H]C([2H])([2H])CC(=O)c1cnc(NC(=O)C2CC2)cc1Nc1cccc(-c2ncn(C([2H])([2H])[2H])n2)c1OC | – | human, plasma | oral, 60 mg once daily, day 14, nonfasted, tablet, geometric mean | – | Ctrough | 45.5 ng/mL
COc1ccnc(C(=O)O)c1O | soil adsorption | tested soils | geometric mean | – | Freundlich coefficient KF | 219 mL/g
CC#CC(=O)N1CC[C@@H](n2c(=O)n(-c3ccc(Oc4ccccc4)cc3)c3c(N)ncnc32)C1 | – | human, fasting, plasma | oral, 480 mg once daily, cycle 1 day 28 | – | Tmax, median | 3.61 h
CCN1/C(=C/C(C)=O)Sc2ccc(F)cc21 | – | cynomolgus monkey | oral, 10 mg/kg, 0.5 h post-dose | baseline: pre-dose | QTc interval change | 98.7 ± 3.4%
CO/N=C(\C(=O)N[C@@H]1C(=O)N2C(C(=O)[O-])=C(C[N+]3(C)CCCC3)CS[C@H]12)c1csc(N)n1 | – | human plasma | concentration not given, 8 months, -80 °C | – | deviation from nominal concentration | -11.2%
Cc1ccc(Sc2ccccc2N2CCNCC2)c(C)c1 | item: any TEAE | healthy adult men | oral, 5 mg daily, 12 days | – | participants with TEAE | 33.3%
O=C(O)c1cccc(C(=O)O)c1 | – | betaine/ethylene glycol DES-water | DES mass fraction 0.60 | – | apparent dissolution enthalpy | 2.82 kcal/mol
COc1ccc(-c2csc(NC(=O)c3ccc(C(=O)Nc4nc(-c5ccc(OC)c(OC)c5)cs4)s3)n2)cc1OC | haemolysis | sheep erythrocytes | 1 h, pH 7.5 | – | HC50 | > 128 µg/mL
O=C(CCCN1CCC(O)(c2ccc(Cl)cc2)CC1)c1ccc(F)cc1 | – | male Hartley guinea pig, anaesthetized | intravenous infusion, 0.01 mg/kg, 10 min infusion, post-infusion | – | QTc interval | 348 ± 0.4 ms
CON(C)C(=O)[C@H](CCSC)NS(=O)(=O)c1cccc(Cl)c1O | colloidal aggregate formation, dynamic light scattering | 50 mM potassium phosphate buffer | 200 µM, pH 7.0, 1% DMSO | higher = more aggregation | DLS scattered light intensity | 589000 counts/s
CN1C(=O)[C@@H](NC(=O)c2nnc(Cc3ccccc3)[nH]2)COc2cccnc21 | phase I multiple ascending dose | human, male and female | oral, 100 mg, 14 days | – | participants with any TEAE | 50%
FC(F)(F)c1ccc(CNc2ccc(Cc3c[nH]c4ncc(Cl)cc34)cn2)cn1 | – | patients with advanced solid tumours | oral, 1000 mg/day, non-TGCT cohort, grade ≥3 | – | dry mouth incidence | 0%
CSc1nc(C)c(Cl)c(O)n1 | haemolysis | sheep erythrocytes | 1 h, pH 7.5 | – | HC50 | > 128 µg/mL
N#Cc1ccc2c(c1)[C@H]1CCCN(C(=O)c3ccc4[nH]cnc4c3)[C@H]1C2 | – | human females | 160 mg, day 15 | – | SHBG level | 30.9 nmol/L
CCOc1c([C@H](C)n2nc(C)c3c(N)ncnc32)cc(Cl)c(F)c1[C@@H]1CNC(=O)C1 | item: QTcF above 500 ms | previously treated B-cell malignancy | oral, 10 mg once daily, baseline QTcF ≤450 ms | – | ECG observations | 0%
CCn1c(C(=O)N(C2CC2)C2CC2)cc2c3c(ncn3C)c(Nc3cc(C)n(C)n3)nc21 | inducer | cultured human hepatocytes | 10 µM, 3 days, added: phenacetin O-dealkylation | baseline: vehicle | CYP1A2 activity | 2.5 fold
COc1ccc2c(c1)CN(C(=O)CCN1CCC(Cc3ccccc3)CC1)CC[S@@+]2[O-] | – | healthy male volunteers, urine | intravenous, 0.05 mg/kg | baseline: dose | urinary excretion | 7.04 ± 2.28%
Cc1ccc(C(=O)N(CCCN)C(c2nc3snc(C)c3c(=O)n2Cc2ccccc2)C(C)C)cc1 (stereo not shown) | item: Hypophosphatemia | human patients | intravenous, dose not given, CTCAE grade ≥3, all doses | – | patients with adverse events | 8%
Cc1nc(-c2cnc(NC(C)C)n(C)c2=O)ccc1Oc1ccnc(-c2cnn(C)c2)c1 | – | Beagle dog, male, plasma | intravenous, 1 mg/kg | – | half-life | 6.82 h
COc1cc2c3c(n(CCCNC(C)C)c(=O)c2cc1OC)-c1nc2c(cc1C3=O)OCO2 | – | male CD1 mouse, plasma | intravenous, 1 mg/kg | – | Vss | 22.2 L/kg
Cn1ncc(S(=O)(=O)NCc2ccc(S(=O)(=O)NC3CC3)cc2)c1C(=O)O | colloidal aggregate formation, dynamic light scattering | 50 mM potassium phosphate buffer | 200 µM, pH 7.0, 1% DMSO | higher = more aggregation | DLS scattered light intensity | 946000 counts/s
O=C(O)CCCCCCCCCCCCCCCCC(=O)O | – | human, plasma | endogenous baseline diurnal | – | daily mean concentration | 86.4 ± 5.3 nM
